Measured values gathered from unrelated publications.
“And” joins repeats or separate records; there may be more than shown. Numbers after ± are the reported error. Where no end group is shown, it is not given here.
Protein farnesyltransferase: Protein farnesyltransferase (Rattus norvegicus, UniProt Q02293+Q04631)
CASP4: Caspase-4 (CASP4, Homo sapiens, UniProt P49662)
Fibroblast growth factor 2 with pentraxin 3: Fibroblast growth factor 2, with pentraxin 3 (Homo sapiens, UniProt P09038)
Nr3c1: Glucocorticoid receptor (Nr3c1, Rattus norvegicus, UniProt P06536)
APP: Amyloid-beta precursor protein (APP, Homo sapiens, UniProt P05067)
B1: side-chain stapled; chain AACSFRINSLCG (also: sidechain bridge or staple (positions not given here))

Molecule = NC(=O)C1=CN([C@@H]2O[C@H](COP(=O)(O)OP(=O)(O)OC[C@H]3O[C@@H](n4cnc5c(N)ncnc54)[C@H](O)[C@@H]3O)[C@@H](O)[C@H]2O)C=CC1; target = NADH dehydrogenase [ubiquinone] flavoprotein 1, mitochondrial, complex I (NDUFV1, Bos taurus, UniProt P25708); assay = binding to reduced flavin, substrate; setting = pH 7.55, 32 °C, added: rotenone 2.3 µM; endpoint = Kd; value = 300 µM
Molecule = O=S(=O)(O)c1cc(N=C=S)ccc1CCc1ccc(N=C=S)cc1S(=O)(=O)O; target = SLC4A1 (Homo sapiens, UniProt P02730); assay = chloride exchange; test system = human resealed ghosts; setting = 0 °C, no chloride gradient, added: chloride 60 mM both sides; endpoint = ID50; value = 0.13 µM and 0.19 µM and 0.17 µM and 0.16 µM and 0.12 µM
Molecule = CGIA; target = Protein farnesyltransferase; assay = substrate, stopped-flow fluorescence; test system = peptide; setting = pH 7.8, 25 °C, single turnover; endpoint = farnesylation rate constant; value = 0.75 ± 0.07 s⁻¹
Molecule = NC(=O)/C(=C/n1cnc(-c2cc(C(F)(F)F)cc(C(F)(F)F)c2)n1)c1cncnc1; target = Exportin-1 (CRM1, Saccharomyces cerevisiae, UniProt P30822, del377-413/T539C); assay = NES binding, pull-down; setting = 90 min, 4 °C, added: 2 µM protein, 10 µM RanGTP; endpoint = concentration for complete inhibition; value = 10 to 20 µM
Molecule = Oc1ccc(OCc2ccccc2)cc1; target = CASP4; setting = 33 µM, added: LEHD substrate; how to read = relative to: solvent control; endpoint = remaining activity; value = 15.1%
Molecule = Clc1ccc2c(c1)CCc1cccnc1C2=C1CCN(CC2CCCC2)CC1; target = Histamine H1 receptor (HRH1, Homo sapiens, UniProt P35367); assay = histamine-induced calcium response, antagonist; setting = concentration not given, after washout of unbound compound, added: histamine; endpoint = duration of complete antagonism; value = ≥ 2 h
Molecule = Ac-APCRA-NH2 (N-acetyl, C-amide); target = Fibroblast growth factor 2 with pentraxin 3; assay = binding to PTX3, competitor, surface plasmon resonance; test system = peptide; setting = added: 150 nM free FGF2; endpoint = ID50; value = 800 µM
Molecule = PDSRLLELHITMPFSSPM (LAGE-1 (83-100); sequence looked up); target = HLA-DPB1*0401; assay = peptide binding, biotinylated peptide competition; test system = peptide; how to read = relative to: peptide over reference peptide, lower = stronger binding; endpoint = relative IC50; value = 326
Molecule = CSc1nc2c([nH]1)c(=S)n(C)c(=S)n2C; target = Nr3c1; assay = reporter gene, antagonist, MMTV-luciferase; test system = T47D/A1-2; setting = 10 µM, 24 h, added: 5 nM dexamethasone; how to read = relative to: maximal activity; endpoint = remaining activity; value = 103%
Molecule = B1; target = Prolyl endopeptidase (PREP, Homo sapiens, UniProt P48147); assay = enzyme activity; setting = 200 µM, 37 °C; how to read = relative to: FAPα over PREP; endpoint = selectivity ratio; value = 6 fold
Molecule = O=C(N1CCCC[C@@H]1Cc1ccccc1)n1ccc(C(O)(c2ccc(F)cc2)c2ccc(F)cc2)n1; target = Diacylglycerol lipase-alpha (Mus musculus, UniProt Q6WQJ1); assay = enzyme activity, inhibitor; endpoint = kinact; value = 0.00133 s⁻¹
Molecule = COc1cccc(C(=O)Nc2cccc(-c3nc4ncccn4c3C)c2)c1; target = GPR32 (Homo sapiens, UniProt O75388); assay = β-arrestin recruitment, agonist, PathHunter; test system = CHO cells expressing GPR32; setting = concentration not given; how to read = relative to: vehicle; endpoint = efficacy; value = 46.6%
Molecule = CC[C@@H](C)[C@@H](NC(=O)[C@@H](NC(=O)[C@@H](N)C(C)C)C(C)C)C(=O)N[C@@H](C)C(N)=O; target = APP; assay = amyloid aggregation, inhibitor, fluorescence; setting = 2 µM, 24 h; endpoint = inhibition; value = 49.6%
Molecule = CC[C@H](C)[C@H](NC(=O)[C@H](CCC(N)=O)NC(=O)CNC(=O)[C@H](CC(C)C)NC(=O)[C@H](CCCCN)NC(=O)[C@@H]1CCCN1C(=O)[C@H](C)NC(=O)[C@H](CCCNC(=N)N)NC(=O)[C@@H](N)CCCCN)C(=O)NCC(=O)N[C@@H](CCCNC(=N)N)C(=O)N[C@@H](CCC(N)=O)C(=O)N[C@@H](CCCCN)C(=O)N[C@@H](C)C(=O)N[C@H](C(=O)N[C@@H](CC(=O)O)C(=O)N[C@H](C(=O)N[C@@H](CCC(=O)O)C(=O)N[C@@H](CC(=O)O)C(=O)O)[C@@H](C)CC)C(C)C; target = Calcium/calmodulin-dependent protein kinase type II subunit alpha (CAMK2A, Homo sapiens, UniProt Q9UQM7); assay = enzyme activity, mixed non-competitive inhibitor, Morrison kinetics; endpoint = alpha factor; value = 4.3 ± 1.7
Molecule = O=C(Nc1ccc([N+](=O)[O-])cc1Cl)c1cc(Cl)ccc1O; target = CASP4; setting = 33 µM, added: LEHD substrate; how to read = relative to: solvent control; endpoint = remaining activity; value = 11.3%
Molecule = CCc1nc2c([nH]1)c(=O)n(C)c(=O)n2C; target = Androgen receptor (AR, Homo sapiens, UniProt P10275); assay = reporter gene, antagonist, PSA-luciferase; test system = HeLa-A6; setting = 10 µM, 24 h, added: 5 nM dihydrotestosterone; how to read = relative to: maximal activity; endpoint = remaining activity; value = 83%
Molecule = Ac-YESTNPFTAK-NH2 (N-acetyl, C-amide); target = EHD1 EH domain, mouse; assay = ITC; test system = peptide; setting = pH 7.0, 20 °C, 0 mM KCl, first titration; how to read = higher = stronger binding; endpoint = Ka; value = 7030 M⁻¹
Molecule = c1ccc2[nH]c(-c3cscn3)nc2c1; target = CASP4; setting = 33 µM, added: LEHD substrate; how to read = relative to: solvent control; endpoint = remaining activity; value = 13.5%
Molecule = Cn1c(=O)c2[nH]c(Cc3ccccc3)nc2n(C)c1=O; target = Nr3c1; assay = reporter gene, antagonist, MMTV-luciferase; test system = T47D/A1-2; setting = 10 µM, 24 h, added: 5 nM dexamethasone; how to read = relative to: maximal activity; endpoint = remaining activity; value = 117%
Molecule = Ac-ARPCG-NH2 (N-acetyl, C-amide); target = Fibroblast growth factor 2 with pentraxin 3; assay = binding to PTX3, competitor, surface plasmon resonance; test system = peptide; setting = added: 150 nM free FGF2; endpoint = ID50; value = 1000 µM
Molecule = CN(c1ccccc1)S(=O)(=O)C1CC2OC1C(c1ccc(O)cc1)=C2c1ccc(O)cc1 (stereo not shown); target = Estrogen receptor (ESR1, Homo sapiens, UniProt P03372); assay = reporter gene, antagonist; test system = HepG2; setting = added: estradiol 10 nM; how to read = relative to: E2 response, negative is inverse agonism; endpoint = efficacy; value = 56 ± 2%
Molecule = CC1=NN(c2nc(-c3ccc(Cl)cc3)cs2)C(=O)/C1=C\c1ccc2c(c1)OCO2; target = rabbit myokinase, pyruvate kinase, lactate dehydrogenase; assay = coupled enzyme activity, promiscuity counterscreen; setting = 90 min preincubation; endpoint = lowest inhibitory concentration; value = > 6.25 µM
Molecule = c1ncc2[nH]cnc2n1; target = cobT (Desulfitobacterium hafniense, UniProt Q24VN9); assay = alpha-ribazole phosphate formation, substrate; setting = 250 µM, 30 min, pH 7.5, 30 °C, added: 2 mM NaMN; endpoint = conversion; value = > 99%
Molecule = CC(=O)N[C@@H](CCC(=O)O)C(=O)N[C@H](C(=O)N[C@@H](CC(C)C)C(=O)N[C@H](C(=O)N[C@@H](CCCNC(=N)N)C(=O)N1CCC[C@H]1C(=O)N[C@@H](CCCCN)C(=O)N1CCC[C@H]1C(=O)N[C@@H](CC(C)C)C(=O)N[C@@H](CC(C)C)C(=O)N[C@@H](CC(C)C)C(=O)N[C@@H](CCCCN)C(=O)N[C@@H](CC(C)C)C(=O)N[C@@H](CC(C)C)C(=O)N[C@@H](CCCCN)C(=O)N[C@@H](CO)C(=O)N[C@H](C(=O)NCC(=O)N[C@@H](C)C(=O)N[C@@H](Cc1ccc(O)cc1)C(N)=O)C(C)C)C(C)C)[C@@H](C)O; target = Protein S100-B (Homo sapiens, UniProt P04271); assay = binding, NMR line shape, fixed Kd; setting = 35 °C, low salt; endpoint = koff; value = 160 ± 30 s⁻¹
Molecule = COC(=O)CCC(C(=O)C=Cc1cc(F)c(O)c(F)c1)C(=O)C=Cc1cc(F)c(O)c(F)c1 (stereo not shown); target = APP; assay = Aβ aggregation, SDS-PAGE western blot, measured: Aβ1-42 75-200 kDa band; setting = 30 µM, 24 h, 37 °C, added: Aβ1-42 10 µM; how to read = relative to: DMSO; endpoint = band density; value = 161 ± 30%
Molecule = Cc1ccccc1-c1ccc(C(=O)N2CC3(C)CC2CC(C)(C)C3)cc1 (stereo not shown); target = Vasopressin V1a receptor (Mus musculus, UniProt Q62463); assay = blocker; test system = CD-1 mouse, septum; setting = subcutaneous, 3 mg/kg, 60 min; endpoint = radiotracer uptake reduction; value = 30%
Molecule = CCn1c2ccccc2c2cc(NC(=O)c3ccccc3-c3ccccc3C(=O)O)ccc21; target = UDP-galactose 4-epimerase (galE, Trypanosoma brucei, UniProt Q8T8E9); assay = enzyme activity, inhibitor, HPAEC; setting = 30 µM, added: UDP-galactose substrate, 0.06% n-octylglucopyranoside; endpoint = change in inhibition with detergent; value = no effect
Molecule = Cc1oncc1C(=O)Nc1ccc(C(F)(F)F)cc1; target = CASP4; setting = 33 µM, added: LEHD substrate; how to read = relative to: solvent control; endpoint = remaining activity; value = 16.3%
Molecule = CC(C)[C@H](NC(=O)[C@H](CCCNC(=N)N)NC(=O)[C@@H](NC(=O)[C@H](CCC(N)=O)NC(=O)[C@H](CCC(N)=O)NC(=O)[C@@H](NC(=O)[C@H](Cc1c[nH]c2ccccc12)NC(=O)[C@@H]1CCCN1C(=O)[C@H]1CCCN1C(=O)[C@H](Cc1ccccc1)NC(=O)[C@H](CO)NC(=O)CNC(=O)[C@H](CCCNC(=N)N)NC(=O)[C@H](CCCNC(=N)N)NC(=O)[C@H](CCCNC(=N)N)NC(=O)[C@H](CCCNC(=N)N)NC(=O)[C@H](CCCNC(=N)N)NC(=O)[C@@H](N)CCCNC(=N)N)C(C)C)[C@@H](C)O)C(=O)O; target = Disks large homolog 4, PDZ3 domain (Homo sapiens, UniProt P78352); assay = binding, surface plasmon resonance; setting = pH 7.5, 25 °C; endpoint = kon; value = 1.88e+06 M⁻¹ s⁻¹
Molecule = CLML; target = Protein farnesyltransferase; assay = substrate, stopped-flow fluorescence; test system = peptide; setting = pH 7.8, 25 °C, single turnover; endpoint = farnesylation rate constant; value = 0.018 ± 0.002 s⁻¹
Molecule = CCCCC/C=C\S/C=C\CCCCCCCC(=O)O; target = Seed linoleate 13S-lipoxygenase-1 (Glycine max, UniProt P08170); assay = inhibitor; setting = pH 10.0, noncompetitive inhibition, added: linoleic acid; endpoint = Kii; value = 115 ± 60 µM
Molecule = Cc1cc(NC(=O)c2cccc(NC(=O)/C=C/CN(C)C)c2)ccc1Nc1nccc(-c2cccnc2)n1; target = Mitogen-activated protein kinase 14 (MAPK14, Homo sapiens, UniProt Q16539); assay = target engagement in cells, inhibitor, chemoproteomics; test system = A-375; setting = 1 µM; endpoint = inhibition; value = 3.9%
Molecule = Nc1nc2c(ncn2[C@@H]2O[C@@H]3COP(=O)(O)O[C@H]3[C@H]2O)c(=O)[nH]1; target = Cyclic nucleotide-gated channel alpha-2 (Cnga2, Rattus norvegicus, UniProt Q00195, E583M); assay = ion current, agonist, inside-out patch clamp; setting = E583M channel, -50 mV; how to read = relative to: cAMP at saturation; endpoint = relative maximal current; value = 0.35 ± 0.16
Molecule = CN(Cc1cnc2nc(N)nc(N)c2n1)c1ccc(C(=O)N[C@@H](CCC(=O)O)C(=O)O)cc1; target = Reduced folate transporter (SLC19A1, Homo sapiens, UniProt P41440); assay = transport, substrate; test system = K562 transfected (K500E); setting = 180 s, 37 °C; endpoint = Vmax; value = 4.62 ± 0.37 pmol/mg protein/min
Molecule = O=CCO; target = aldehyde oxidase F10 (Pseudomonas sp. MX-058); assay = substrate, peroxidase-coupled H2O2; setting = pH 7.0, 30 °C, added: O2 co-substrate; endpoint = Km; value = 29.8 mM
Molecule = N[C@H](CCC(=O)O)C(=O)O; target = racE (Bacillus subtilis, UniProt P94556); assay = enzyme activity, inhibitor; endpoint = binding free energy; value = -22.2 kJ/mol
Molecule = O=C(O)CCc1ccc(O)c(CN(CCN(CC(=O)O)Cc2cc(CCC(=O)NCCCCCC(=O)NCCCC[C@H](NC(=O)N[C@@H](CCC(=O)O)C(=O)O)C(=O)O)ccc2O)CC(=O)O)c1; target = Glutamate carboxypeptidase 2 (FOLH1, Homo sapiens, UniProt Q04609); assay = 68Ga-labelled; test system = LNCaP; setting = 30 nM, 45 min, 37 °C; how to read = relative to: bound; endpoint = internalized fraction; value = 17.9 ± 0.7%
Molecule = Ac-GPSLNPFDEED-NH2 (N-acetyl, C-amide); target = EHD1 EH domain, mouse; assay = ITC; test system = peptide; setting = pH 7.0, 20 °C, 0 mM KCl, second titration; endpoint = ΔG; value = -7920 cal/mol
Molecule = O=P(O)(O)O[C@@H]1[C@H](O)[C@H](O)[C@@H](OP(=O)(O)O)[C@H](OP(=O)(O)O)[C@H]1O; target = Arf-GAP with SH3 domain, ANK repeat and PH domain-containing protein 1, residues 325-724 (Asap1, Mus musculus, UniProt Q9QWY8); assay = binding, isothermal titration calorimetry; setting = pH 8.0, 25 °C, saturation not achieved; endpoint = Kd; value = 350 ± 50 µM
Molecule = CC1=C(/C=C/C(C)=C/C=C/C(C)=C/C=C/C=C(C)/C=C/C=C(C)/C=C/C2=C(C)C[C@H](O)CC2(C)C)C(C)(C)C[C@H](O)C1; target = Glutathione S-transferase P (GSTP1, Homo sapiens, UniProt P09211); assay = surface plasmon resonance; setting = 25 °C; endpoint = Kd; value = 0.19 ± 0.03 µM
